Assay results gathered from unrelated publications.
Every numbered part comes from another study and shows a few of its results, in no order. Changes are numbered by the printed parent chain.

Series 1
Target: Sal-like protein 4, full length isoform B (SALL4, Homo sapiens, UniProt Q9UJQ4-2, residues 1-616)
Technique: universal PBM
Molecule type: double-stranded DNA, one strand shown
Matrix: in vitro
Concentration: not given
Notes: 8-mer, flanks averaged, mean of replicates
Reading: higher = stronger binding
Construct (chain): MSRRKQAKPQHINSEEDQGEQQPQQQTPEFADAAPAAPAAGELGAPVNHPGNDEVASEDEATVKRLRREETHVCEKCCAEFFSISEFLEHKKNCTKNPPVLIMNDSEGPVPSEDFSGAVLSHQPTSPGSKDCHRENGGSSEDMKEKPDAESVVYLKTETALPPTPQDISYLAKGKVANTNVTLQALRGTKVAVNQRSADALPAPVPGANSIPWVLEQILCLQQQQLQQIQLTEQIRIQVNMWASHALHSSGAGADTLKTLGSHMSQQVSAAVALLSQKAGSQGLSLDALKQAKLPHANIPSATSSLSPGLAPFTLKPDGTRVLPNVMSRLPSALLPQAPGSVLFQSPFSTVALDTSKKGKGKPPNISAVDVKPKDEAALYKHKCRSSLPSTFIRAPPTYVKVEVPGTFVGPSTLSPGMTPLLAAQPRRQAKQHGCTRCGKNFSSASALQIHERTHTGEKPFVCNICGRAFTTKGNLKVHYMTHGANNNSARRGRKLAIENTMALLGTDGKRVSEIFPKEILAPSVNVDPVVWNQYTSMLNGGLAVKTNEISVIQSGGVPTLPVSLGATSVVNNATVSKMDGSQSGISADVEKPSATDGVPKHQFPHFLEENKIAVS
Oligonucleotide	E-score
GAGCGTCA	-0.151
CATAAAGG	0.256
ACCGTCTC	-0.0605
AATACTTC	0.206
CGTTATAG	0.221
CATATCTA	0.351
ACTATGTG	0.178
AACCTCCT	0.0304
CGGGCCCG	-0.217
AATCTCGC	0.0792
CGAATGCG	0.0362
ATTAGAAC	0.277
GCTTCGAA	-0.0889
CGGCAACA	-0.039
ACCAAATG	-0.0132
CTGTATCA	0.00492
CCAACGCG	-0.294
AACGTCGG	-0.0524
AATGTATC	0.308
ACCTTATA	0.246
CAAGAATG	0.00209
CGCAGCCA	-0.209
GGGGCAAA	-0.0759
AAACACTC	0.113
AAAGGGCT	-0.0143

Series 2
Target: RING finger protein unkempt homolog, zinc fingers 1-6, GST-SBP tag (UNK, Homo sapiens, UniProt Q9C0B0, residues 30-357)
Chain of UniProt Q9C0B0 (30-357, looked up): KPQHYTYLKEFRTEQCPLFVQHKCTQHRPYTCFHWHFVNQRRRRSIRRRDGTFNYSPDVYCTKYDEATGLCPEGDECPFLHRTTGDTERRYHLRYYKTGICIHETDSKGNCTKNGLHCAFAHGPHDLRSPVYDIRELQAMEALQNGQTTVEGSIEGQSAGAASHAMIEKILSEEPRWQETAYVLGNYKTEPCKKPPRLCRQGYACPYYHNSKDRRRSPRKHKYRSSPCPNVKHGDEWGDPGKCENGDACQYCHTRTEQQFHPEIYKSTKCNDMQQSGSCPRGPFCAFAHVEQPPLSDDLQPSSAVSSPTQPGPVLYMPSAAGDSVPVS
Technique: RNA Bind-n-Seq
Molecule type: RNA
Matrix: in vitro
Concentration: not given
Notes: RNA with constant flanks, human and mouse sites, ends assumed
Reference: input RNA pool
Reading: higher = stronger binding
Oligonucleotide	bound/input enrichment
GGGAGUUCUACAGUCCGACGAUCUAUCUUAUAUUGCAUCUCAUCUCUACAGUGUAUACAAGAAGAGAUGUACUUCCUCUAGGAAAAUUUACAGUUAACCUGAGUGGUUGCCCGCAGAACAGUACCUUCACGGAACACCUCUACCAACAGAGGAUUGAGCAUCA	0.925 ratio
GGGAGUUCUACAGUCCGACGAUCUAAGGUUAUAGGGCUCCCUGAGUUUGGGAGUGUGGAAGUACUACUUAACUGUCUGUCCUGCUUGGCUGUCGUUAUCGUUUUCUGGUGAUGUUGUGCUAACAAUAAGAAGUACACGGGUUUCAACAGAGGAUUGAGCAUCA	0.261 ratio
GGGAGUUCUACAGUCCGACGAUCUCUGUUCUCUUGGAUGAGAUACUGAAGGACCCAGAGCACCCUAGCAAGGAUUACAUAAUGAACUUUGAGAUCCGGUCCCUGCGAGACAGCCGAGCAUUGAUUGAGAAAGUUGGAAUUGAACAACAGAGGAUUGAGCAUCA	0.358 ratio
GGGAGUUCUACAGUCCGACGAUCAGGAAGAGGAGGAGGAGGAGCAGUUGUUGUUUAGCCAUGAUUGUAAAAAUGUUAUUGUUUCAGGAAACAGCAAGACAUAGUAGAGCUGAAGGAGAGCCAGGAGCAUCACAUUCUGGAAGUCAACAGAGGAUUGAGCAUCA	0.465 ratio
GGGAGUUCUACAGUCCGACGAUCCUGAAGAAGACGGCUAGCCUCGGGUUCUGCGCAGUUUCCCUCUACUUUGUCACGGCCUUCAUCAUCCCCGCCAUCUCCACCAAUAUCCAGUCCAUGCACAAAGGCACCGGCUCUCCAUGGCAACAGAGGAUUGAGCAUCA	0.197 ratio
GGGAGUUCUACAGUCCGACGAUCUGCAAUUGGGUAGUGGACACUUGUUUACAUAAGGGAAGUCGAGAUAACAUGAGUGUUGUAUUAGUUUGCUUUUCAAAUGCCCCCAAGGUCUCAGAGGAAGCCGUGAAGAGAGAUUCAGAGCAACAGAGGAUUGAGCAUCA	0.316 ratio
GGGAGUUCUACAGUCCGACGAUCAAAGAGAAACUAAAGCAACUAAUAGAGAAGAGGAUUGGCAAAGAGAAUUUCAUAGAGAAACUAGGAUUUAUUAGCAAACAUGAGUUAUAUUCCAGAGCGUCUCAGAAACCCCAGCCAAACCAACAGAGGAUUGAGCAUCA	7.73 ratio
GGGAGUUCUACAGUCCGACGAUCGAGCGUCUCGCUCGAACCGGGAUCAUAGUGACCACGAGUGAGGCUGUUCUGCUUCAGCUGGUAGCUGAUAAGGACCAUCCAAAAUUCAAGGAAAUUCAGAAUCUAAUUAAGGCGAGUGCUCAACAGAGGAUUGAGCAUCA	0.193 ratio

Series 3
Target: RNA binding protein fox-1 homolog 2, RRM domain, GST-SBP tag (RBFOX2, Homo sapiens, UniProt O43251-10, residues 100-194)
Technique: RNA Bind-n-Seq
Molecule type: RNA
Matrix: in vitro
Concentration: 365 nM
Notes: natural RNA segment, single round, ends assumed
Reference: no-protein control
Reading: higher = stronger binding
Oligonucleotide	RBNS enrichment (R)
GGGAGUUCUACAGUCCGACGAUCGCUUCUUAUAAAUACCUCCAAAGUGCCACCUGUUUCAACAGAAACGCUCAGAUUGCUAGCUAGGCAAGCACUGGGCACUCCAGAGCCAGUGGCUCUGCCACCCUGCAGGCUGGAAUUCUCGGGUGCCAA	0.376
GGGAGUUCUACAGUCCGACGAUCGAAGCCCCCAGAAAUAAUGAGUGGGGAAGGUACUAGGGCACUGGCCUUGGCCUCAAAAGUGCAGGCACACUUGAAACUGGAAAGGAAGGUGCUCUGGGCACAUGUGGAUUUGGAAUUCUCGGGUGCCAA	0.663
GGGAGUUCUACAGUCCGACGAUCAUUGUGUGUAUGUAUGUUUAAUAUAACAUGACAGGCACGAGGACGCCUGCCUUUUAAGAGGCAGUUCCGUUAAGGGUUUUUGUUUUAAAACUCUUUUUUUUCCUUUCUUUUGGAAUUCUCGGGUGCCAA	0.426
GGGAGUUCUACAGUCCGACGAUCGAAUUGUCGCCUCCUGCUCUUUUGUUACUGAGUGAGAUAAGGUUGUUCAAUAAAGACUUUUAUCCCCAAGGUCUCUCUGUGUCUGUUUUCUGGGGUGUCAUGGCUGGAGUUGGAAUUCUCGGGUGCCAA	1.97
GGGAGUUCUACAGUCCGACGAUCUUAUAAGAUGAAGCGUAGUGAAUUGUACAGCUGUUGUAAUAAUGACCUAUUUCUAUAUAAAAUAAAAUUGUAUGGCUUAUGUGUAAAUUAUUUUGUAUCUGAGAUACCAGUGGAAUUCUCGGGUGCCAA	0.535
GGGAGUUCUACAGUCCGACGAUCGGUAGGCCUUGGAGGGAAAUCUGUAGGGGUGGGGACCUUCCUACCUUCCUGGCUUGAGAACAGCCCUGCUACCCUUUUUGAGCCGAAAUUUUGAAGUGGAUGCCCGUCUUUGGAAUUCUCGGGUGCCAA	2.05
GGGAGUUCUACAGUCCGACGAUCGGCUGGGAGCCUUAGAGAAACGCAAGCUCACGCCUUCAUAAAUAUGCAGUUUCCUGCUUUCUGCCCUGAACUUUGAAAUGCCUGUGUAAGGAAUCAAAAUGAACAUGAUCUGGAAUUCUCGGGUGCCAA	0.647
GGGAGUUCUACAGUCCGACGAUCUUCAACUUUACAAUUGGUCUGUUGGGGUAUUAAAUGAAUUUGUGACUUAGGAUAUUUUCAUUUAUGAUGGGUUUAUCAGGAAGUAACCCCAUGGUAAGUUGAGGCAUAUCUGGAAUUCUCGGGUGCCAA	0.984

Series 4
Target: Histone acetyltransferase KAT6A, both winged helices, GST fusion (KAT6A, Homo sapiens, UniProt Q92794, residues 1-181)
Technique: protein binding microarray
Molecule type: double-stranded DNA, one strand shown
Matrix: in vitro
Concentration: not given
Notes: 8-mer, flanks averaged, mean of 2 arrays, mostly near background
Reference: not given
Reading: higher = stronger binding
Construct (chain): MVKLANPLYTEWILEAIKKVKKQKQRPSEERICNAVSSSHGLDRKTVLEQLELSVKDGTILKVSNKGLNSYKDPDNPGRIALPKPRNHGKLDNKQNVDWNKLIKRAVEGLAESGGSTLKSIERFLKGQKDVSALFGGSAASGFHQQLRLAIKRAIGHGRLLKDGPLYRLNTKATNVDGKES
Oligonucleotide	E-score
CCAGAGGG	-0.199
CGCACATC	0.246
CACCTCAC	0.0244
CCTCTGAG	-0.164
GATCCGAA	-0.119
CGTCCGTC	0.162
CATGCTAA	-0.0898
ACATCCAA	-0.163
AAATTTTC	-0.00167
ACCTGCAC	-0.129
ACTAGCCA	-0.101
ATCGAATA	0.0198
ACGAATAT	-0.0997
ATCACATG	0.0329
CAGCTGGC	-0.0548
TACTCCTA	-0.152
CGACTGGA	0.00878
ACTCGGCC	0.182
ACAATTGA	-0.0664
TGCTTCCA	-0.307
ATAGCCTA	-0.181
ACGATAGT	-0.0716
ATTGCCGG	0.263
CAGACCAA	-0.215
ACACCCCA	-0.23

Series 5
Target: CCND3, cyclin fold, Cln2 fusion (human)
Technique: yeast growth competition, sequencing
Matrix: yeast
Notes: weak parent motif
Reference: not given
Reading: higher = stronger binding
Starting sequence: PKMYT1 docking peptide (human); SFEPRNLLSLFED; partner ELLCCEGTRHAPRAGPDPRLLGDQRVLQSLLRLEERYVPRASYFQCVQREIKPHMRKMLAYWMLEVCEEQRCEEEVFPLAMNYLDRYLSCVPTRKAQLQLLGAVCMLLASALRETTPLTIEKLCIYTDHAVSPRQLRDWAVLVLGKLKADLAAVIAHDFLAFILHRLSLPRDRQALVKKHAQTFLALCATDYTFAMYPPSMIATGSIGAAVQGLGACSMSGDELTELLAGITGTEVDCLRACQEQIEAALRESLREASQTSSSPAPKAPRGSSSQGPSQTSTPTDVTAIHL
Substitution	normalised enrichment score
SFEPRNLLSLPED [F11P]	0.09
QFEPRNLLSLFED [S1Q]	0.0376
SFEPVNLLSLFED [R5V]	0.0888
SFSPRNLLSLFED [E3S]	0.0189
SFEPRNLLSLFCD [E12C]	0.107
SFEPENLLSLFED [R5E]	0.101
SVEPRNLLSLFED [F2V]	0.0428
STEPRNLLSLFED [F2T]	0.167
SFRPRNLLSLFED [E3R]	0.02
SFVPRNLLSLFED [E3V]	0.12
SFERRNLLSLFED [P4R]	0.115
SWEPRNLLSLFED [F2W]	-0.00728
SFEPRNTLSLFED [L7T]	0.0882
SFESRNLLSLFED [P4S]	0.0847
IFEPRNLLSLFED [S1I]	0.0221
SFEPRNKLSLFED [L7K]	0.134
SFEPRNLLSLFEI [D13I]	0.09

Some of these lines once more (series 3):
Oligonucleotide	RBNS enrichment (R)
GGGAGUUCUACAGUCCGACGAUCGAAGCCCCCAGAAAUAAUGAGUGGGGAAGGUACUAGGGCACUGGCCUUGGCCUCAAAAGUGCAGGCACACUUGAAACUGGAAAGGAAGGUGCUCUGGGCACAUGUGGAUUUGGAAUUCUCGGGUGCCAA	0.663
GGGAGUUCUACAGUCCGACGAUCAUUGUGUGUAUGUAUGUUUAAUAUAACAUGACAGGCACGAGGACGCCUGCCUUUUAAGAGGCAGUUCCGUUAAGGGUUUUUGUUUUAAAACUCUUUUUUUUCCUUUCUUUUGGAAUUCUCGGGUGCCAA	0.426
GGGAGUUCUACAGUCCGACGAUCGAAUUGUCGCCUCCUGCUCUUUUGUUACUGAGUGAGAUAAGGUUGUUCAAUAAAGACUUUUAUCCCCAAGGUCUCUCUGUGUCUGUUUUCUGGGGUGUCAUGGCUGGAGUUGGAAUUCUCGGGUGCCAA	1.97
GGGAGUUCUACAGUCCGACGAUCUUAUAAGAUGAAGCGUAGUGAAUUGUACAGCUGUUGUAAUAAUGACCUAUUUCUAUAUAAAAUAAAAUUGUAUGGCUUAUGUGUAAAUUAUUUUGUAUCUGAGAUACCAGUGGAAUUCUCGGGUGCCAA	0.535
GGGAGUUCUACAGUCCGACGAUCGGUAGGCCUUGGAGGGAAAUCUGUAGGGGUGGGGACCUUCCUACCUUCCUGGCUUGAGAACAGCCCUGCUACCCUUUUUGAGCCGAAAUUUUGAAGUGGAUGCCCGUCUUUGGAAUUCUCGGGUGCCAA	2.05
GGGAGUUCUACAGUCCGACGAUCGGCUGGGAGCCUUAGAGAAACGCAAGCUCACGCCUUCAUAAAUAUGCAGUUUCCUGCUUUCUGCCCUGAACUUUGAAAUGCCUGUGUAAGGAAUCAAAAUGAACAUGAUCUGGAAUUCUCGGGUGCCAA	0.647
